# Measurements from different studies.
# Compare with care: the assays were run in different laboratories.
# Organism: Escherichia coli
SMILES,assay,test system,setting,how to read,endpoint,result
CC[C@H](C)[C@H](NC(=O)[C@H](CO)NC(=O)[C@H](CO)NC(=O)[C@H](Cc1ccccc1)NC(=O)CN)C(=O)N[C@@H](Cc1ccccc1)C(=O)N[C@@H](CCCNC(=N)N)C(=O)NCC(=O)N[C@H](C(=O)N[C@@H](C)C(=O)N[C@@H](CCCCN)C(=O)N[C@@H](Cc1ccccc1)C(=O)N[C@@H](C)C(=O)N[C@@H](CO)C(=O)N[C@@H](CCCCN)C(=O)NCC(=O)N[C@@H](CC(C)C)C(=O)NCC(=O)N[C@@H](CCCCN)C(N)=O)C(C)C,,ATCC 8739,pretreated trypsin 0.25 mg/mL,,MBC,> 128 µM
CC[C@H](C)[C@H](NC(=O)[C@H](CCCCN)NC(=O)[C@H](CCCCN)NC(=O)[C@H](CC(C)C)NC(=O)[C@H](CCCCN)NC(=O)[C@H](CCC(=O)O)NC(=O)[C@H](CCCCN)NC(=O)[C@@H](NC(=O)[C@H](CCCCN)NC(=O)[C@H](CC(N)=O)NC(=O)[C@H](CCCNC(=N)N)NC(=O)[C@H](Cc1ccccc1)NC(=O)[C@H](CCCCN)NC(=O)[C@H](CCCNC(=N)N)NC(=O)[C@H](CC(C)C)NC(=O)[C@H](CCCNC(=N)N)NC(=O)[C@H](CCCCN)NC(=O)[C@H](CCCNC(=N)N)NC(=O)[C@H](CC(C)C)NC(=O)CN)[C@@H](C)CC)C(=O)NCC(=O)N[C@@H](CCC(N)=O)C(=O)N[C@@H](CCCCN)C(=O)N[C@H](C(=O)N[C@@H](CCC(N)=O)C(=O)NCC(=O)N[C@@H](Cc1ccccc1)C(=O)N[C@H](C(=O)N1CCC[C@H]1C(=O)N[C@@H](CCCCN)C(=O)N[C@@H](CC(C)C)C(=O)N[C@@H](C)C(=O)N1CCC[C@H]1C(=O)N[C@@H](CCCNC(=N)N)C(=O)N[C@H](C(=O)N[C@@H](CC(=O)O)C(=O)N[C@@H](Cc1ccc(O)cc1)C(=O)O)[C@@H](C)O)C(C)C)[C@@H](C)CC,inhibition zone,TOP10,,,lethal concentration,1.62 µM
CC[C@H](C)[C@H](NC(=O)[C@@H]1CCCN1C(=O)[C@H](CCCNC(=N)N)NC(=O)[C@@H]1CCCN1C(=O)[C@@H]1CCCN1C(=O)[C@@H](NC(=O)[C@@H]1CCCN1C(=O)[C@H](CCCNC(=N)N)NC(=O)[C@@H]1CCCN1C(=O)[C@H](CC(C)C)NC(=O)[C@H](Cc1ccc(O)cc1)NC(=O)[C@H](CO)NC(=O)CNC(=O)[C@H](CCCCN)NC(=O)[C@H](CC(=O)O)NC(=O)[C@@H](NC(=O)[C@H](CCCCN)NC(=O)c1ccc2c(c1)C(=O)OC21c2ccc(O)cc2Oc2cc(O)ccc21)C(C)C)[C@@H](C)O)C(=O)N[C@@H](Cc1ccc(O)cc1)C(=O)N[C@@H](CC(N)=O)C(=O)N[C@@H](CCCNC(=N)N)C(=O)N[C@@H](CC(N)=O)C(N)=O,,D22,,baseline: Py,MIC ratio,64 to 512 fold
CC[C@H](C)[C@H](NC(=O)[C@H](CCCNC(=N)N)NC(=O)[C@H](CCCCN)NC(=O)[C@H](CC(C)C)NC(=O)[C@H](CC(C)C)NC(=O)CN)C(=O)N[C@@H](CCCCN)C(=O)N[C@H](C(=O)N[C@@H](CC(C)C)C(=O)N[C@@H](CC(C)C)C(=O)NCCCC[C@H](NC(=O)[C@H](CC(C)C)NC(=O)[C@H](CC(C)C)NC(=O)[C@@H](NC(=O)[C@H](CCCCN)NC(=O)[C@@H](NC(=O)[C@H](CCCNC(=N)N)NC(=O)[C@H](CCCCN)NC(=O)[C@H](CC(C)C)NC(=O)[C@H](CC(C)C)NC(=O)CN)[C@@H](C)CC)[C@@H](C)O)C(N)=O)[C@@H](C)O,checkerboard,ATCC 25922,together with: polymyxin B,,FIC index,0.125
CC[C@H](C)[C@H](NC(=O)[C@H](CCCCN)NC(=O)[C@H](CCCCN)NC(=O)[C@H](CC(C)C)NC(=O)[C@H](CCCCN)NC(=O)[C@H](CCC(=O)O)NC(=O)[C@H](CCCCN)NC(=O)[C@@H](NC(=O)[C@H](CCCCN)NC(=O)[C@H](CC(N)=O)NC(=O)[C@H](CCCNC(=N)N)NC(=O)[C@H](Cc1ccccc1)NC(=O)[C@H](CCCCN)NC(=O)[C@H](CCCNC(=N)N)NC(=O)[C@H](CC(C)C)NC(=O)[C@H](CCCNC(=N)N)NC(=O)[C@H](CCCCN)NC(=O)[C@H](CCCNC(=N)N)NC(=O)[C@H](CC(C)C)NC(=O)[C@@H](N)CCCNC(=N)N)[C@@H](C)CC)C(=O)NCC(=O)N[C@@H](CCC(N)=O)C(=O)N[C@@H](CCCCN)C(=O)N[C@H](C(=O)N[C@@H](CCC(N)=O)C(=O)NCC(=O)N[C@@H](Cc1ccccc1)C(=O)N[C@H](C(=O)N1CCC[C@H]1C(=O)N[C@@H](CCCCN)C(=O)N[C@@H](CC(C)C)C(=O)N[C@@H](CCC(N)=O)C(=O)N1CCC[C@H]1C(=O)N[C@@H](CO)C(=O)N[C@@H](CCCCN)C(=O)N[C@@H](CCC(N)=O)C(=O)N[C@@H](CO)C(=O)O)C(C)C)[C@@H](C)CC,inhibition zone,DH5α,,,lethal concentration,2.51 µM
CC[C@H](C)[C@H](NC(=O)[C@H](CCN)NC(=O)CCCCCCCCCCCNC(=O)CCCCCOC(=O)c1cn(C2CC2)c2cc(N3CCNCC3)c(F)cc2c1=O)C(=O)N[C@@H](CCN)C(=O)N[C@H](Cc1ccccc1)C(=O)N[C@@H](CC(C)C)C(=O)N[C@@H](CCN)C(=O)N[C@@H](C(=O)N[C@@H](CC(C)C)C(=O)N[C@@H](CO)C(N)=O)C(C)C,,,"6.25 µM, 4 h, 37 °C",,survival,32.2%
CCCC(=O)NCC(=O)N[C@@H](CC(C)C)C(=O)N[C@@H](CC(C)C)C(=O)N[C@@H](CCCCN)C(=O)N[C@@H](CCCNC(=N)N)C(=O)N[C@H](C(=O)N[C@@H](CCCCN)C(=O)N[C@H](C(=O)N[C@@H](CC(C)C)C(=O)N[C@@H](CC(C)C)C(=O)NCCCC[C@H](NC(=O)[C@H](CC(C)C)NC(=O)[C@H](CC(C)C)NC(=O)[C@@H](NC(=O)[C@H](CCCCN)NC(=O)[C@@H](NC(=O)[C@H](CCCNC(=N)N)NC(=O)[C@H](CCCCN)NC(=O)[C@H](CC(C)C)NC(=O)[C@H](CC(C)C)NC(=O)CNC(=O)CCC)[C@@H](C)CC)[C@@H](C)O)C(=O)NCCCC[C@H](NC(=O)[C@H](CCCCNC(=O)[C@H](CC(C)C)NC(=O)[C@H](CC(C)C)NC(=O)[C@@H](NC(=O)[C@H](CCCCN)NC(=O)[C@@H](NC(=O)[C@H](CCCNC(=N)N)NC(=O)[C@H](CCCCN)NC(=O)[C@H](CC(C)C)NC(=O)[C@H](CC(C)C)NC(=O)CNC(=O)CCC)[C@@H](C)CC)[C@@H](C)O)NC(=O)[C@H](CC(C)C)NC(=O)[C@H](CC(C)C)NC(=O)[C@@H](NC(=O)[C@H](CCCCN)NC(=O)[C@@H](NC(=O)[C@H](CCCNC(=N)N)NC(=O)[C@H](CCCCN)NC(=O)[C@H](CC(C)C)NC(=O)[C@H](CC(C)C)NC(=O)CNC(=O)CCC)[C@@H](C)CC)[C@@H](C)O)C(N)=O)[C@@H](C)O)[C@@H](C)CC,checkerboard,ATCC 25922,together with: polymyxin B,,FIC index,0.125
C[C@]1(COC(=O)c2ccccc2O)[C@H](C(=O)O)N2C(=O)/C(=C/c3ccccn3)[C@H]2S1(=O)=O,broth microdilution,TG1 expressing CMY-2,16 µg/mL,,MIC of ceftazidime,0.12 µg/mL
CCCCCCCCCCCCCC(=O)N[C@@H](Cc1ccccc1)C(=O)N[C@@H](CCCCN)C(=O)N[C@@H](CCCCN)C(=O)N[C@@H](CCCCN)C(=O)N[C@@H](CCCCN)C(N)=O,,K12,,,MBC,64 µg/mL
CC[C@H](C)[C@H](NC(=O)[C@H](CCCCN)NC(=O)[C@H](CCCCN)NC(=O)[C@H](CC(C)C)NC(=O)[C@H](CCCCN)NC(=O)[C@H](CCC(=O)O)NC(=O)[C@H](CCCCN)NC(=O)[C@@H](NC(=O)[C@H](CCCCN)NC(=O)[C@H](CC(N)=O)NC(=O)[C@H](CCCNC(=N)N)NC(=O)[C@H](Cc1ccccc1)NC(=O)[C@H](CCCCN)NC(=O)[C@H](CCCNC(=N)N)NC(=O)[C@H](CC(C)C)NC(=O)[C@H](CCCNC(=N)N)NC(=O)[C@H](CCCCN)NC(=O)[C@H](CCCNC(=N)N)NC(=O)[C@@H](N)CC(C)C)[C@@H](C)CC)C(=O)NCC(=O)N[C@@H](CCC(N)=O)C(=O)N[C@@H](CCCCN)C(=O)N[C@H](C(=O)N[C@@H](CCC(N)=O)C(=O)NCC(=O)N[C@@H](Cc1ccccc1)C(=O)N[C@H](C(=O)N1CCC[C@H]1C(=O)N[C@@H](CCCCN)C(=O)N[C@@H](CC(C)C)C(=O)O)C(C)C)[C@@H](C)CC,inhibition zone,Am. J23a,,,lethal concentration,1.33 µM
CC[C@H](C)[C@H](NC(=O)[C@H](CCCN)NC(=O)[C@H](CC(N)=O)NC(=O)[C@H](Cc1c[nH]c2ccccc12)NC(=O)[C@H](Cc1ccccc1)NC(=O)[C@H](CCCN)NC(=O)[C@H](CCCCNC(=N)N)NC(=O)[C@H](CC(C)C)NC(=O)[C@H](Cc1c[nH]c2ccccc12)NC(=O)[C@H](CCCN)NC(=O)[C@H](CCCCNC(=N)N)NC(=O)[C@H](CC(C)C)NC(=O)CNC(C)=O)C(=O)N[C@@H](CCCN)C(=O)N[C@@H](CCCCNC(=N)N)C(N)=O,,ATCC 25922,"1/2 x MIC, established biofilm",,biofilm cells killed,> 50%
CC(C)C[C@H](NC(=O)[C@H](CCCCN)NC(=O)[C@H](C)NC(=O)[C@H](CC(C)C)NC(=O)[C@H](CCCCN)NC(=O)[C@H](CCC(N)=O)NC(=O)[C@H](CCCCN)NC(=O)[C@H](CC(C)C)NC(=O)[C@H](CCCCN)NC(=O)[C@H](CCC(N)=O)NC(=O)[C@H](CC(C)C)NC(=O)[C@H](CCCCN)NC(=O)[C@H](C)NC(=O)[C@H](CCCCN)NC(=O)[C@H](CC(C)C)NC(=O)[C@H](CCCCN)NC(=O)[C@H](C)NC(=O)[C@H](CC(C)C)NC(=O)[C@H](CCCCN)NC(=O)[C@H](CCC(N)=O)NC(=O)[C@@H](N)CCCCN)C(N)=O,LIVE/DEAD staining,10 mM phosphate buffer,"MIC, 30 min, pH 7.4, 37 °C",,dead cells,< 30%
CCCC(=O)NCC(=O)N[C@@H](CC(C)C)C(=O)N[C@@H](CC(C)C)C(=O)N[C@@H](CCCCN)C(=O)N[C@@H](CCCNC(=N)N)C(=O)N[C@H](C(=O)N[C@@H](CCCCN)C(=O)N[C@H](C(=O)N[C@@H](CC(C)C)C(=O)N[C@@H](CC(C)C)C(=O)NCCCC[C@H](NC(=O)[C@H](CCCCNC(=O)[C@H](CC(C)C)NC(=O)[C@H](CC(C)C)NC(=O)[C@@H](NC(=O)[C@H](CCCCN)NC(=O)[C@@H](NC(=O)[C@H](CCCNC(=N)N)NC(=O)[C@H](CCCCN)NC(=O)[C@H](CC(C)C)NC(=O)[C@H](CC(C)C)NC(=O)CNC(=O)CCC)[C@@H](C)CC)[C@@H](C)O)NC(=O)[C@H](CC(C)C)NC(=O)[C@H](CC(C)C)NC(=O)[C@@H](NC(=O)[C@H](CCCCN)NC(=O)[C@@H](NC(=O)[C@H](CCCNC(=N)N)NC(=O)[C@H](CCCCN)NC(=O)[C@H](CC(C)C)NC(=O)[C@H](CC(C)C)NC(=O)CNC(=O)CCC)[C@@H](C)CC)[C@@H](C)O)C(N)=O)[C@@H](C)O)[C@@H](C)CC,checkerboard,ATCC 25922,together with: polymyxin B,,FIC index,0.25
CC[C@H](C)[C@H](NC(=O)[C@H](CO)NC(=O)[C@H](CO)NC(=O)[C@H](Cc1ccccc1)NC(=O)CN)C(=O)N[C@@H](Cc1ccccc1)C(=O)N[C@@H](CCCNC(=N)N)C(=O)NCC(=O)N[C@H](C(=O)N[C@@H](C)C(=O)N[C@@H](CCCCN)C(=O)N[C@@H](Cc1ccccc1)C(=O)N[C@@H](C)C(=O)N[C@@H](CO)C(=O)N[C@@H](CCCCN)C(=O)NCC(=O)N[C@@H](CC(C)C)C(=O)NCC(=O)N[C@@H](CCCCN)C(=O)N[C@@H](CC(=O)O)C(=O)N[C@@H](CC(C)C)C(=O)N[C@@H](C)C(=O)N[C@@H](CCCNC(=N)N)C(N)=O)C(C)C,,ATCC 8739,2 × MIC,,time to complete killing,30 min
Nc1ncc(/C=N/NC(=O)Cc2c[nH]c3ccccc23)cn1,,TolC,50 µM,,growth inhibition,18%
